Measurements pooled from the literature.
Values joined by “and” are separate records of one study, mostly repeats; a detail may differ. Numbers after ± are the reported error.

`C#Cc1cc(-c2cc(Nc3nc(N[C@@H](C)c4ccc(F)cn4)ncc3Cl)n[nH]2)ccc1C=O` gave an inhibition of 39.9% and 36.8% (NPM1-ALK kinase fusion, human; kinase activity, inhibitor; 0.2 µM).
For `CNCc1ccc(-c2cc(-c3nc(-c4ccc(S(=O)(=O)C(C)C)cc4)cnc3N)on2)cc1`, the inhibition was 20% (AMPK (rat); inhibitor; 2 µM, added: ATP at Km).
For `COc1cc(O)c2c(c1)O[C@H](c1ccccc1)CC2=O`, the inhibition was 11.9 ± 3.63% (bovine serum albumin; methylglyoxal-mediated glycation, fluorescence; concentration not given).
The inhibition of `Oc1cccc(Nc2nc(-c3ccc(F)cc3F)cs2)c1` is reported as -15.6% (KATP channel; 10 µM).
With `CCN1CCN(Cc2ccc(NC(=O)c3ccc(C)c(Oc4ccnc5[nH]ccc45)c3)cc2C(F)(F)F)CC1` the inhibition was -39.1% (ERK1/2 human; Huh-7; 10 µM).
The inhibition of `O=C(c1ccc(F)cc1)N(Cc1ccccc1)C1CCCCC1` is reported as 22% (KATP channel; binding; 10 µM).
The inhibition of `O=C1C[C@@H](c2ccccc2)Oc2cc(O)cc(O)c21` is reported as 47.6 ± 3.64% (bovine serum albumin; methylglyoxal-mediated glycation, fluorescence; concentration not given).
For `CCN(CC)CCNC(=O)c1c(C)[nH]c(/C=C2\C(=O)Nc3ccc(F)cc32)c1C`, the inhibition was 81% (AMPK (rat); kinase activity, inhibitor; 10 µM).
`O=c1cc(-c2ccccc2)oc2cc(O)cc(O)c12` has an inhibition of 54 ± 2.71% (bovine serum albumin; methylglyoxal-mediated glycation, fluorescence; concentration not given).
The inhibition of `COc1cc(NC(C)=O)c(Cl)cc1C(=O)Nc1nccs1` is reported as -1.6% (KATP channel; 10 µM).
The inhibition of `Cc1ccc(Nc2nccc(N(C)c3ccc4c(C)n(C)nc4c3)n2)cc1S(N)(=O)=O` is reported as 1% (AMPK (rat); kinase activity, inhibitor; 0.3 µM).
The inhibition of `O=c1c(O)c(-c2ccc(O)c(O)c2)oc2c(Br)c(O)c(Br)c(O)c12` is reported as 60.85 ± 0.43% (bovine serum albumin; methylglyoxal-mediated glycation, fluorescence; concentration not given).
`O=C(c1ccc(Cl)cc1)N(Cc1ccccc1)C1CCCCC1` has an inhibition of -8.8% (GABA transporter; 10 µM).
`COC(=O)CCc1ccc(C(=O)N/N=C/C(Br)=C/c2ccccc2)cc1` has an inhibition of 19% (human Hsp90β-p23 interaction; split luciferase reporter; HEK293T; 30 µM, 24 h).
